Results from different studies.
Protocols differ between the studies behind these lines. Numbers after ± are the reported error.
UniProt Q9NRG4, sequence (whole entry, looked up): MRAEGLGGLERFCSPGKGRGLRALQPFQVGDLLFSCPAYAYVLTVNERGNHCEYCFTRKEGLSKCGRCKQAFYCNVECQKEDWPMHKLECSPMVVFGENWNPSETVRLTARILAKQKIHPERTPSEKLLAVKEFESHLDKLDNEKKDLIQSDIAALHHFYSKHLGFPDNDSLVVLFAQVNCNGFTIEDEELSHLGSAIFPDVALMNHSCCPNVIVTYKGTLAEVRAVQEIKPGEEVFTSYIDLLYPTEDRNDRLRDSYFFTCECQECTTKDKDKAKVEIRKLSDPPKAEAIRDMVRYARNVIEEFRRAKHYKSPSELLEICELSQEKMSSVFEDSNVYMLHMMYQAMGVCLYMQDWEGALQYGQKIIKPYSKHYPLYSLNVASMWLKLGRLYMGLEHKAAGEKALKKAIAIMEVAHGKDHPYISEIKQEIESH
UniProt Q06418, sequence (whole entry, looked up): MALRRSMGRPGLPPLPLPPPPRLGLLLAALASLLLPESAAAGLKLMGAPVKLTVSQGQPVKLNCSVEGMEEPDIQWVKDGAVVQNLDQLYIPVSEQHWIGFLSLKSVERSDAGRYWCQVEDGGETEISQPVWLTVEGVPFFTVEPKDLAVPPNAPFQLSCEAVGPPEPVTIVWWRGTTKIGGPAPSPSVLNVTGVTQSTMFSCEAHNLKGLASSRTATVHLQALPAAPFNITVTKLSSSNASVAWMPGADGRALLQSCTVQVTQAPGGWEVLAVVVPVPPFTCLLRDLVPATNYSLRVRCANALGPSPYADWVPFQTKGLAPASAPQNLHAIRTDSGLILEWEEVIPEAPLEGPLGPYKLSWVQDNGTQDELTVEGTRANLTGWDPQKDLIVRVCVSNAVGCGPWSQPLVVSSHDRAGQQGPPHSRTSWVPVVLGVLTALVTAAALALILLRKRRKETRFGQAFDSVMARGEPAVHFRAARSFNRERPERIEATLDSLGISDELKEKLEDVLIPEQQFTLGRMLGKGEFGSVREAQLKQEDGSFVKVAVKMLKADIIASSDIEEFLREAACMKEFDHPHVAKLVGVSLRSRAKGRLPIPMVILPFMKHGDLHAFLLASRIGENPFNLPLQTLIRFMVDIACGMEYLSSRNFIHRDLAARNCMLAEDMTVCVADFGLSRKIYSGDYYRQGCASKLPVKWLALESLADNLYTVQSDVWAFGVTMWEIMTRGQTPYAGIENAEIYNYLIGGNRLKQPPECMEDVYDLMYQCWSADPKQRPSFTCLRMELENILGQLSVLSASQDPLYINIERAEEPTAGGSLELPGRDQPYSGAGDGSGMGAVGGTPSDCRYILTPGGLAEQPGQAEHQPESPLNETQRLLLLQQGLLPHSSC
UniProt O00141, sequence (whole entry, looked up): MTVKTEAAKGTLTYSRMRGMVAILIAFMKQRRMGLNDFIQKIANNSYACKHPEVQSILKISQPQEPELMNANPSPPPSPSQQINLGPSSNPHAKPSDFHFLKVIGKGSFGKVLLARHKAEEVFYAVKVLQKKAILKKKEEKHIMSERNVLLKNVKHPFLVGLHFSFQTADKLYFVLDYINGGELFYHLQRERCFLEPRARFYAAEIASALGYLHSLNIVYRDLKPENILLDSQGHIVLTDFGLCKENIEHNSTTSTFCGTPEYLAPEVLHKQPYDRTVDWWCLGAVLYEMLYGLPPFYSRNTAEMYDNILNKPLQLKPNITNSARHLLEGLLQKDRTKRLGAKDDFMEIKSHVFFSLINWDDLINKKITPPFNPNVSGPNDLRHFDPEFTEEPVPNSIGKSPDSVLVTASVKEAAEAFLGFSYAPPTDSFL
UniProt P35367, sequence (whole entry, looked up): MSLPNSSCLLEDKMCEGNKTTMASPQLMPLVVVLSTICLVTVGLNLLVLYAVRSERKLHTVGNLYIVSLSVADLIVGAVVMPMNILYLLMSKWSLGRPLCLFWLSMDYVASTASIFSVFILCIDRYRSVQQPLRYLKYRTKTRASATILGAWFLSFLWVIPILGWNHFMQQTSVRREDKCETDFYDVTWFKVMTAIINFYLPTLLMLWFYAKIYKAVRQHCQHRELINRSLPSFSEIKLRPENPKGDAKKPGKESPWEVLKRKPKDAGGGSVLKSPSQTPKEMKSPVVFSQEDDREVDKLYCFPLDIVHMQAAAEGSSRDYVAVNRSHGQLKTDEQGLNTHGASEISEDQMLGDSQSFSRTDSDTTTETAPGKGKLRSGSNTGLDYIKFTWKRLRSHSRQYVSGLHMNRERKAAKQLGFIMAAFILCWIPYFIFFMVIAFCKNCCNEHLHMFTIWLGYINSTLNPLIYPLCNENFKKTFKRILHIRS
UniProt P10721, sequence (whole entry, unmodified, looked up): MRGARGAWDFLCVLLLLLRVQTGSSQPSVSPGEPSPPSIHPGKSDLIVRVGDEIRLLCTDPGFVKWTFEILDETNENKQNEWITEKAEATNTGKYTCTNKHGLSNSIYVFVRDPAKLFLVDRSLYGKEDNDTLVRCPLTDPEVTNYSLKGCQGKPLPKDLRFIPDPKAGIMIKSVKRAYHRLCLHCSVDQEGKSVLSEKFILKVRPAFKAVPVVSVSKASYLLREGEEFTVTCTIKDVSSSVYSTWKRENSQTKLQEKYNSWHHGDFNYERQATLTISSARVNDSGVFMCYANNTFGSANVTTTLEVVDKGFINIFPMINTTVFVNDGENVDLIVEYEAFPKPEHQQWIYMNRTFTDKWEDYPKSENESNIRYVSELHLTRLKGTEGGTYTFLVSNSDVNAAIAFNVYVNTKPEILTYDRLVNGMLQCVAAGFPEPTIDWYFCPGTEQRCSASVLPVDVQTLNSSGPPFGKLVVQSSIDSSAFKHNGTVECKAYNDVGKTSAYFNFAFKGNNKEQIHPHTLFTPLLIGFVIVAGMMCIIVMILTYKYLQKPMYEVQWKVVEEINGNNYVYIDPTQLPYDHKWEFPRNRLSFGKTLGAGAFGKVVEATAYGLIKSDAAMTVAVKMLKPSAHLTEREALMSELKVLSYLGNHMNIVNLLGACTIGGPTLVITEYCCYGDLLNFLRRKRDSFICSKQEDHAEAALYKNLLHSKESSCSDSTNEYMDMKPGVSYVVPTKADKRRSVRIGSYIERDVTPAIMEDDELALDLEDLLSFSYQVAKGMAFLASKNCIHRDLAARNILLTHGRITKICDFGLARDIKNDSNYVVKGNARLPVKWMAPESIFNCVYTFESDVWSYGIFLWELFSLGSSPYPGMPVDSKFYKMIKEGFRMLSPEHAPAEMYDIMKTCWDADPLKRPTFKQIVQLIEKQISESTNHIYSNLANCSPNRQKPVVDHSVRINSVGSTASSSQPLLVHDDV
UniProt Q9HB89, sequence (whole entry, looked up): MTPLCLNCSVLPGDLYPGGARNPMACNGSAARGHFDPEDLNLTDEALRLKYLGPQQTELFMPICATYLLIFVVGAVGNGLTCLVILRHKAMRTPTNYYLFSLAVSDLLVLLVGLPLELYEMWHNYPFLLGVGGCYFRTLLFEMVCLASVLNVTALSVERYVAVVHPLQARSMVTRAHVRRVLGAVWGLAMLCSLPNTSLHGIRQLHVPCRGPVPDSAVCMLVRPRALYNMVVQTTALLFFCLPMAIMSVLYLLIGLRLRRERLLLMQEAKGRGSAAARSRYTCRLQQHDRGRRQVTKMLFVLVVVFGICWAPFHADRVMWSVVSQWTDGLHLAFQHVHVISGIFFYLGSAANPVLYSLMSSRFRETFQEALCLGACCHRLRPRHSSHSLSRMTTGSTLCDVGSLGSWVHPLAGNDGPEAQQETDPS
UniProt O15264, sequence (whole entry, looked up): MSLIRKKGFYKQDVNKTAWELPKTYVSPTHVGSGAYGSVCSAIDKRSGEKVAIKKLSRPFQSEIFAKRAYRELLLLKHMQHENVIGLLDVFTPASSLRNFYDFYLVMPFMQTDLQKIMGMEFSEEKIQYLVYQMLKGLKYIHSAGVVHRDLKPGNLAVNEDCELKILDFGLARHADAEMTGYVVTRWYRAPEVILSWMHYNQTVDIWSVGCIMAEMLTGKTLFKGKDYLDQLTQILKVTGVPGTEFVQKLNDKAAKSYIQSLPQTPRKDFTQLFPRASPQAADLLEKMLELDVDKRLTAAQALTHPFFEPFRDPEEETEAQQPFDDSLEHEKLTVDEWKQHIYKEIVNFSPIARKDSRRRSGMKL
UniProt P42685, sequence (whole entry, looked up): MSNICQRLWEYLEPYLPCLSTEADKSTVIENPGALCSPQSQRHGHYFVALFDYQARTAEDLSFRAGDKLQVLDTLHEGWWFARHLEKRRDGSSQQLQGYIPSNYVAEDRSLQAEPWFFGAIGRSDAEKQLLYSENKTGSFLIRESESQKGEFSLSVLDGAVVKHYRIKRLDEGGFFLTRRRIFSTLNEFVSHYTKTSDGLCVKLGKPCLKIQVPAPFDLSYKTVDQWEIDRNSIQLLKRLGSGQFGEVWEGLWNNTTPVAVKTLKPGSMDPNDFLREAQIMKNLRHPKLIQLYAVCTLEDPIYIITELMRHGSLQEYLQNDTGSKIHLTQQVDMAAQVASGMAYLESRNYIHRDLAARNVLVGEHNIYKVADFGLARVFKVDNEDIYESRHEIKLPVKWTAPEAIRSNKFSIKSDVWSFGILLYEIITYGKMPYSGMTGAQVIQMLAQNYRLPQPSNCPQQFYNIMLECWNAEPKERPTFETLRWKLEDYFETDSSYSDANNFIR
UniProt P00540, sequence (whole entry, looked up): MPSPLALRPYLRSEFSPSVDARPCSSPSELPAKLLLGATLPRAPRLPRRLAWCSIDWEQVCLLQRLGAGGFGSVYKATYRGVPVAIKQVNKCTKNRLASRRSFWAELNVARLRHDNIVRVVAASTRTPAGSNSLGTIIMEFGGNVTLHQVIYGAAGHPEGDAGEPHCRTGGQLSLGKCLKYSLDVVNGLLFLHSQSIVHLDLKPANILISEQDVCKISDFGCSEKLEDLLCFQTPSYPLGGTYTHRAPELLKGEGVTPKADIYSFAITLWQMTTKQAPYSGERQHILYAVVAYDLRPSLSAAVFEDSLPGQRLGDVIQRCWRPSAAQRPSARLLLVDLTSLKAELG

CCCCCCCCCCCCCCCCCC(=O)NC[C@H]1CC[C@H](C(=O)N[C@@H](CCC(=O)NCCCOCCOCCOCCCNC(=O)COCC(=O)N[C@@H](Cc2ccc(O)cc2)C(=O)NC(C)(Cc2ccccc2)C(=O)N[C@@H](CC(C)C)C(=O)N[C@@H](CCCC)C(=O)N[C@@H](CCCNC(=N)N)C(=O)N2CCC[C@H]2C(=O)N[C@@H](CCCNC(=N)NC)C(=O)N[C@@H](CC(N)=O)C(N)=O)C(=O)O)CC1 (stereo partly shown)  inhibition (NMUR1 (Homo sapiens, UniProt Q9HB89); antagonist, DiscoverX GPCR panel; 1 µM): 88%
O=C(O)c1ccccc1/C=N/Nc1nc(-c2ccccc2Cl)cs1  inhibition (RPS6KA1 (Homo sapiens, UniProt Q15418); enzyme activity, inhibitor; 1 µM): -2.4%
CC[C@H](C)[C@H](NC(=O)[C@H](CCCCN)NC(=O)CNC(=O)[C@H](CC(C)C)NC(=O)[C@H](Cc1ccccc1)NC(=O)[C@H](CCCCN)NC(=O)[C@H](CO)NC(=O)[C@H](Cc1ccccc1)NC(=O)[C@H](Cc1c[nH]c2ccccc12)NC(=O)[C@H](CCC(N)=O)NC(=O)[C@@H](NC(=O)[C@H](Cc1ccccc1)NC(=O)CCCCCNC(=O)CN1CCN(CC(=O)O)CCN(CC(=O)O)CCN(CC(=O)O)CC1)C(C)C)C(=O)N[C@@H](CCC(=O)O)C(=O)N1CCC[C@H]1C(=O)N[C@@H](CC(=O)O)C(=O)N[C@H](C(=O)N[C@@H](CO)C(=O)N[C@@H](CCC(N)=O)C(=O)N[C@H](C(=O)N[C@@H](CCC(N)=O)C(=O)N[C@@H](CC(=O)O)C(=O)N1CCC[C@H]1C(=O)N[C@@H](CC(N)=O)C(=O)N[C@@H](CC(=O)O)C(=O)N[C@@H](CCC(N)=O)C(=O)N[C@@H](Cc1ccc(O)cc1)C(=O)N[C@@H](CCC(=O)O)C(=O)N1CCC[C@H]1C(=O)N[C@@H](Cc1ccccc1)C(=O)O)C(C)C)C(C)C [copper-64 labelled]  tissue uptake (C57BL/6 mice, male, tumour-free, stomach; 2 h): 4.28 ± 0.4 %ID/g
CC1CCN(C(=O)c2cccc(NC(=O)Nc3ccccc3)c2)CC1  inhibition (Beta-lactam-inducible penicillin-binding protein (pbp, Staphylococcus aureus, UniProt P07944); Bocillin-FL labelling, fluorescence polarization; 50 µM): no inhibition
CCc1nnc(-c2c(OC)cc(-c3cnc4cc(-c5cnn(C)c5)ccn34)cc2OC)o1  inhibition (HRH1 (Homo sapiens, UniProt P35367); antagonist radioligand, radioligand binding; 10 µM, SafetyScreen44 H1): -6%
C[C@H](NCc1ccc(-c2ccc(C(F)(F)F)cc2)cc1)C(N)=O  inhibition (KIT (Homo sapiens, UniProt P10721, T670I/V559D); cell-free assay, competition with immobilised ligand; 1 µM): 5%
O=C1c2ccccc2CCCN1CCCCN1CCN(c2cccc(Cl)c2Cl)CC1  inhibition (DRD3 (Homo sapiens, UniProt P35462); radioligand binding; concentration not given, together with: [3H]N-methylspiperone): 99.7%
COc1ccccc1-c1n[nH]c2nc(N[C@H]3CC[C@H](NS(=O)(=O)CC(C)C)CC3)ncc12  relative abundance (bead binding, competition bead pull-down, measured: LINJ.31.0710; Leishmania donovani extract; 10 µM; baseline: vehicle): 0.77
CN(C)[C@H]1C[C@@]23CC[C@@]4(O2)C(=CC[C@]2(C)[C@@H](c5ccc6ccncc6c5)CC[C@H]24)C=C3[C@@H](O)[C@@H]1O  inhibition (PIK3CB (Homo sapiens, UniProt P42338); ATP probe labelling, inhibitor, KiNativ profiling; 0.1 µM): 0.1%
N#Cc1ccc(N2N=C3c4ccc(C(=O)O)cc4CCC3C2C2CCCC2)cc1Cl (stereo not shown)  inhibition (SMYD2 (Homo sapiens, UniProt Q9NRG4); enzyme activity, inhibitor; 10 µM): 0%
CC[C@H](C)[C@H](NC(=O)[C@H](CO)NC(=O)[C@H](Cc1ccc(O)cc1)NC(=O)[C@H](Cc1ccc(O)cc1)NC(=O)[C@H](CC(N)=O)NC(=O)CNC(=O)[C@H](CO)NC(=O)[C@H](Cc1ccc(O)cc1)NC(=O)[C@H](CO)NC(=O)[C@H](CO)NC(=O)[C@H](CC(N)=O)NC(=O)COCCOCCNC(=O)CN1CCN(CC(=O)O)CCN(CC(=O)O)CCN(CC(=O)O)CC1)C(=O)N[C@@H](CC(C)C)C(N)=O [copper-64 labelled]  tissue uptake (dynamic PET; KPC mouse Ptf1a-CreER tdTomato, pancreas; intravenous, dose not given, 2.5 min, 84 d after tamoxifen): 13 %ID/mL
N[C@H](C(=O)N1CCCC1)C1CCN(c2nccc3c(-c4ncc(Cl)cc4Cl)cccc23)CC1  inhibition (SGK1 (Homo sapiens, UniProt O00141); kinase activity, inhibitor; 10 µM, together with: ATP 1 mM): -3.4%
CC(C)[C@H]1NC(=O)C[C@H]2/C=C/CCSSC[C@@H](NC1=O)C(=O)N[C@H](Cc1cccc3ccccc13)C(=O)NCC(=O)O2  inhibition (Proto-oncogene serine/threonine-protein kinase mos (MOS, Homo sapiens, UniProt P00540); 10 µM): 0.142%
CN(/N=C/c1ccccc1C(=O)O)c1nc(-c2ccccc2Cl)cs1  inhibition (MAPK13 (Homo sapiens, UniProt O15264); enzyme activity, inhibitor; 1 µM): 1.2%
Cc1ccc2c(n1)c(-c1cccc(S(C)(=O)=O)c1)c(C)n2C/C(F)=C/CN  inhibition (PDE4 (human); 10 µM): -13%
CN[C@@H]1[C@H](O)[C@H](NC)[C@H]2O[C@]3(O)[C@H](O[C@@H]2[C@H]1O)O[C@H](C)C[C@H]3NC(=O)Cc1cc(Cl)ccn1  inhibition (SLC6A4 (Homo sapiens, UniProt P31645); ligand displacement, radioligand; 10 µM): -10%
O=C1NC2(CC2)COc2ncc(F)cc2[C@H]2COCCN2c2ccn3ncc1c3n2  potassium (Sprague-Dawley rat, female, serum; oral, 5 mg/kg/day, 4 weeks daily, end of recovery period): 3.99 ± 0.31 mmol/L
O=C1NC(=O)c2c1c1cc(F)c[n+]3c1c1c2c2cc(O)ccc2[n]1[Ru-4]312([N]=C=S)[S+]3CC[S+]1CC[S+]2CC3 (stereo not shown)  remaining activity (FRK (Homo sapiens, UniProt P42685); enzyme activity; 100 nM, human enzyme, together with: 10 µM ATP; baseline: untreated): 29%
CC(C)(C)C(=O)OCOP(=O)(OCOC(=O)C(C)(C)C)C1CCCN(O)C1=O (stereo not shown)  TGI (HT-29): 8.53 µM
COc1ccc(F)cc1S(=O)(=O)Nc1cnc2c(c1)C(=O)NCCO2  inhibition (PGR (Homo sapiens, UniProt P06401); radioligand binding, inhibitor; 10 µM): -3%
CS(C)(=O)=Nc1ccc(-c2ccc(-c3nc4cc(O[C@@H]5CO[C@H]6[C@@H]5OC[C@H]6O)[nH]c4cc3F)cc2)cc1  inhibition (TYRO3 (Homo sapiens, UniProt Q06418); enzyme activity, inhibitor; 10 µM): -6%
COc1ccccc1-c1n[nH]c2nc(NC3CCN(C(=O)Cc4ccc(F)cc4F)CC3)ncc12  relative abundance (bead binding, competition bead pull-down, measured: LINJ.35.2790; Leishmania donovani axenic amastigote extract; 10 µM; baseline: vehicle): 1.07

Some of these lines once more:
CC[C@H](C)[C@H](NC(=O)[C@H](CCCCN)NC(=O)CNC(=O)[C@H](CC(C)C)NC(=O)[C@H](Cc1ccccc1)NC(=O)[C@H](CCCCN)NC(=O)[C@H](CO)NC(=O)[C@H](Cc1ccccc1)NC(=O)[C@H](Cc1c[nH]c2ccccc12)NC(=O)[C@H](CCC(N)=O)NC(=O)[C@@H](NC(=O)[C@H](Cc1ccccc1)NC(=O)CCCCCNC(=O)CN1CCN(CC(=O)O)CCN(CC(=O)O)CCN(CC(=O)O)CC1)C(C)C)C(=O)N[C@@H](CCC(=O)O)C(=O)N1CCC[C@H]1C(=O)N[C@@H](CC(=O)O)C(=O)N[C@H](C(=O)N[C@@H](CO)C(=O)N[C@@H](CCC(N)=O)C(=O)N[C@H](C(=O)N[C@@H](CCC(N)=O)C(=O)N[C@@H](CC(=O)O)C(=O)N1CCC[C@H]1C(=O)N[C@@H](CC(N)=O)C(=O)N[C@@H](CC(=O)O)C(=O)N[C@@H](CCC(N)=O)C(=O)N[C@@H](Cc1ccc(O)cc1)C(=O)N[C@@H](CCC(=O)O)C(=O)N1CCC[C@H]1C(=O)N[C@@H](Cc1ccccc1)C(=O)O)C(C)C)C(C)C [copper-64 labelled]  tissue uptake (C57BL/6 mice, male, tumour-free, stomach; 2 h): 4.28 ± 0.4 %ID/g
CC1CCN(C(=O)c2cccc(NC(=O)Nc3ccccc3)c2)CC1  inhibition (Beta-lactam-inducible penicillin-binding protein (pbp, Staphylococcus aureus, UniProt P07944); Bocillin-FL labelling, fluorescence polarization; 50 µM): no inhibition
